Experimental data collected from several papers.
Every numbered part comes from another study and shows a few of its results, in no order.

Series 1
Target: Replicase polyprotein 1ab, nsp13 helicase (rep, Severe acute respiratory syndrome coronavirus 2, UniProt P0DTD1)
Mode: inhibitor
Tested at: 20 µM
| SMILES | inhibition |
| --- | --- |
| CCO/N=C(\C(=O)N[C@@H]1C(=O)N2C(C(=O)[O-])=C(Sc3nc(-c4cc[n+](C)cc4)cs3)CS[C@H]12)c1nsc(NP(=O)(O)O)n1 | 4.61% |
| Cc1cc(/C=C2\SC(=O)N(c3ccccc3)C2=O)c(C)n1-c1cccnc1 | 5.29% |
| Cn1c([N+](=O)[O-])cnc1COC(N)=O | 0.99% |
| C[C@@H](O[C@H]1OCCN(Cc2nn(P(=O)(O)O)c(=O)[nH]2)[C@H]1c1ccc(F)cc1)c1cc(C(F)(F)F)cc(C(F)(F)F)c1 | 8.36% |
| CN(C)CCc1c[nH]c2ccc(Cn3cncn3)cc12 | 4.5% |
| CNc1ncnc2c1ncn2[C@@H]1O[C@H](CO)[C@@H](O)[C@H]1O | 4.44% |
| COc1cccc2c1C(=O)c1c(O)c3c(c(O)c1C2=O)C[C@@](O)(C(=O)CO)C[C@@H]3O[C@H]1C[C@H](N)[C@H](O[C@@H]2CCCCO2)[C@H](C)O1 | 46% |
| O=c1ncnc2n([C@H]3O[C@@H](CO)[C@H](O)[C@@H]3O)[nH]cc1-2 (stereo in doubt) | 9.86% |
| O=C(NCCN1CCN(c2ncccn2)CC1)C12CC3CC(CC(C3)C1)C2 | 1.3% |
| COC(=O)C1=C(C)NC(C)=C(C(=O)OCCN2CCN(C(c3ccccc3)c3ccccc3)CC2)C1c1cccc([N+](=O)[O-])c1 (stereo not drawn) | 4.83% |
| CSc1ccc(C(=O)c2[nH]c(=O)[nH]c2C)cc1 | 6.51% |
| CC1(C)S[C@@H]2[C@H](NC(=O)[C@H](NC(=O)N3CCN(S(C)(=O)=O)C3=O)c3ccccc3)C(=O)N2[C@H]1C(=O)O | 6.52% |
| CC(CN(C)C)CN1c2ccccc2Sc2ccc(C#N)cc21 (stereo not drawn) | 6.5% |
| O=C1c2cccc(O)c2C(=O)c2c(O)cc(CO)cc21 | 38.5% |
| Cc1nc(C)c(-c2ccc(C3CCC(CC(=O)O)CC3)cc2)nc1C(N)=O (stereo not drawn) | 2.78% |
| COc1ncc(-c2ccc3nccc(-c4ccnnc4)c3c2)cc1NS(=O)(=O)c1ccc(F)cc1F | 12.5% |
| Nc1ccccc1S(N)(=O)=O | -1.03% |
| CCc1c2c(nc3ccc(OC(=O)N4CCC(N5CCCCC5)CC4)cc13)-c1cc3c(c(=O)n1C2)COC(=O)[C@]3(O)CC | 3.63% |
| CS(=O)(=O)c1ccc(-c2cc(Br)sc2-c2ccc(F)cc2)cc1 | 2.47% |
| CNC[C@H](O)[C@@H](O)[C@H](O)[C@H](O)CO | 7.7% |
| O=C(NNc1nc2cc(F)ccc2n2cccc12)c1cnccn1 | 0.68% |
| O=C(Nc1ccccc1)N1CCC(Cc2cnc3ccccc3c2)CC1 | 2.36% |
| OCCN1CCN(CC/C=C2/c3ccccc3Sc3ccc(Cl)cc32)CC1 | 2.12% |
| NCCCNCCSP(=O)(O)O | 3.77% |
| CC(C)=CCC[C@](C)(O)[C@H]1CC[C@]2(C)[C@@H]1[C@H](O)C[C@@H]1[C@@]3(C)CC[C@H](O)C(C)(C)[C@@H]3CC[C@]12C | 1.06% |

Series 2
Cell line: HEK-293T/ACE2
Tested at: concentration not given
Time: 16 (unit not given)
Reference: vehicle
| Structure (SMILES) | viability |
| --- | --- |
| CN1CCC(OC(c2ccccc2)c2ccccc2)CC1 | 107% |
| COc1ccc(C[C@@H]2c3cc(OC)c(OC)cc3CC[N@+]2(C)CCC(=O)OCCCCCOC(=O)CC[N@@+]2(C)CCc3cc(OC)c(OC)cc3[C@H]2Cc2ccc(OC)c(OC)c2)cc1OC | 104% |
| C=C(c1ccc(C(=O)O)cc1)c1cc2c(cc1C)C(C)(C)CCC2(C)C | 105% |
| C[C@@H](c1nc(-c2ccc(C#N)cc2)cs1)[C@](O)(Cn1cncn1)c1cc(F)ccc1F | 69.8% |
| CCCCCCCCCCCCCCCC[N+](C)(C)CCN(Cc1ccc(OC)cc1)c1ncccn1 | 101% |
| CCN[C@H]1CN(CCCOC)S(=O)(=O)c2sc(S(N)(=O)=O)cc21 | 107% |
| Nc1nc2c(ncn2CCC(CO)CO)c(=O)[nH]1 | 102% |
| C[N+](C)(C)CCOC(N)=O | 104% |
| CN(C)CCc1c[nH]c2ccc(Cn3cncn3)cc12 | 99% |
| C=CC1=C(C(=O)O)N2C(=O)[C@@H](NC(=O)/C(=N\O)c3csc(N)n3)[C@H]2SC1 | 100% |
| NC(=O)OCC(COC(N)=O)c1ccccc1 | 101% |

Series 3
Organism: SARS-CoV-2
Read-out: cytopathic effect
Cells: Vero E6
Tested at: 10 µM
| SMILES | inhibition [%] |
| --- | --- |
| CCn1c(-c2nonc2N)nc2cncc(CNC3CCNCC3)c21 | 10.8 |
| Oc1ccc(C2CNCCc3c2cc(O)c(O)c3Cl)cc1 (stereo not drawn) | -7.6 |
| CN1CC[C@@]2(C)c3cc(O)ccc3N(C)[C@@H]12 | -32.4 |
| Oc1ccc2ccccc2c1SSc1c(O)ccc2ccccc12 | 0.6 |
| O=C(O)C(O)Cc1ccc(O)c(O)c1 (stereo not drawn) | -1.5 |
| Sc1nnc(Nc2ccccc2)s1 | 2.6 |
| O=C(c1cc(O)c(O)c(O)c1)c1ccc(O)c(O)c1O | 3.7 |

Series 4
Target: RING finger protein unkempt homolog, zinc fingers 1-6, GST-SBP tag (UNK, Homo sapiens, UniProt Q9C0B0, residues 30-357)
Chain of UniProt Q9C0B0 (30-357, looked up): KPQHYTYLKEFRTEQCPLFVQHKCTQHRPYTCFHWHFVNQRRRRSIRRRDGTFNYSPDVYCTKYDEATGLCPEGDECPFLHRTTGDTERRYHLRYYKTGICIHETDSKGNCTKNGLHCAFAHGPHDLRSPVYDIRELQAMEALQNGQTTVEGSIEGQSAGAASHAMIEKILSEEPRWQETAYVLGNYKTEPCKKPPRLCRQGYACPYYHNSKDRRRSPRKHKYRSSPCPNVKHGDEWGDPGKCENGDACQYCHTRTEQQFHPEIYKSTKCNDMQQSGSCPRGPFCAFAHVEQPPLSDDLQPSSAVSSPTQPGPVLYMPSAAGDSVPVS
Method: RNA Bind-n-Seq
Molecule type: RNA
Sample: in vitro
Tested at: not given
Setting: RNA with constant flanks, human-mouse chimeric sites, ends assumed
Reference: input RNA pool
Reading: higher = stronger binding
| Oligonucleotide | bound/input enrichment [ratio] |
| --- | --- |
| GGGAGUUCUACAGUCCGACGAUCCCCCAAUUACCAUCUGUGGUCUGGAACUGCACUCUCUUUUUUAAAAAACAUGUAUACAUUUUAGGGCUGUAGACUUAUUUUCCUGGUUUUGUUUUUCAUUGCUGACUUUUGAGCACAGAACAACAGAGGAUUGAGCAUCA | 1.8 |
| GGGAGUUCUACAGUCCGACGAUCCUGAGGAUACCACUGAAAGAGACAUUAAAGAAUCAUUUGAGGGCUCUGUUCGUGCAAAGGAUAGUUAUGAUCGGGAAACUGGUUCUUCCAAAGGGUUUGGUUUUGUAGACUUUAAUAGUGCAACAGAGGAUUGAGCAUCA | 0.991 |
| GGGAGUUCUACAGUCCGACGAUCCACGUGUCUGCAGUACUUGAUGUGGACUACUCUCCCACUGGGAAGGAAUUUGUGUCUGCCAGCUUUGAUAAGUCUAUUCGAAUCUUUCCUGUGGACAAAAGUCGAAGCAGGGAAGUGUAUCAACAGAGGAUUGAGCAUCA | 0.296 |
| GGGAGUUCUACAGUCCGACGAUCGAUAAGAAAAGCUUGUUGGAGACCCGCUUGCAUGUCACUGGUAGAGACCUGAGGUGUCAAAUAGCUGAAACCUUUGGAUUUCAAGAAAAUUACAUCAAGAUCGUAAUAAAUAAGAAACAGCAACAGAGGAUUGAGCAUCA | 0.269 |
| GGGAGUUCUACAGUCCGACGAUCCUAGCAGUCCAGCAGCUAGAAGGAGCCUUGAGACAAACACUCCACACACAGGGAAGGCGAUAACAUUGUACAUUGGUUUACAUUUUUUCCCCCUGUGGAUUUUUCUAGAGGUCAUAGUGCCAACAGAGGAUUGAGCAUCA | 0.728 |
| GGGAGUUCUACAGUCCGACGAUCGUUCGGCUCUGGGAUCAUGCUACUAUGACAGAAGUGAAAUCUCUAAAUUUUAAUAUGUCUGUUAGCAGCAUGGAGUAUAUUCCUGAAGGAGAGAUUUUGGUUAUUACUUAUGGACGAUCUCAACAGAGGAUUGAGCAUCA | 0.284 |
| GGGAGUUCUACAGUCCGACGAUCGUGUCCUGCUUUCAACUUAAAUCACUGCAUUUUUACUACUGUUCUGUGAGCAUCAGGACUGUAGCGCUGUGUCACCACAUGAGAGUUGUUAAGCAGCCUUUCUGUGGAGGGUGGGAAUGACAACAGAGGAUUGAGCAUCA | 0.147 |
| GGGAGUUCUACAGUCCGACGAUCUCAUUUUUCUCUUUUCUUUCUUUCCUUUAGGAAAAGCAGAUUAGACUGGUUGUAAGAAAAACAGAAGCCAUGUUUCGAAGACCUGUGUUACAGGUAUUUCGUCAGUUUGUAAGACAUGAGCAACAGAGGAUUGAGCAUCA | 0.438 |
